Measured values of several laboratories.
Protocols differ between the studies behind these lines. Values joined by “and” are separate records of one study, mostly repeats; a detail may differ. ± marks the error that the study gave.

Structure (SMILES) | assay | system | setting | how to read | measurement | value
Cn1c(C(F)(F)F)cc(=O)n(-c2cc(Oc3cccnc3OCC(=O)O)c(Cl)cc2F)c1=O | – | Crl:CD1(ICR) mice, male, plasma | oral diet, 5 ppm in diet, day 1, 90-day toxicity study | – | Cmax | 16.2 ng/mL
CC(C)COC(=O)c1ccc2c(c1)/C(=N/Nc1ccc(S(N)(=O)=O)cc1)C(=O)N2 | – | octanol/buffer | pH 11 | – | logP | 1.19
Nc1ccn([C@@H]2CS[C@H](CO)O2)c(=O)n1 | – | Tat+ transgenic mouse, striatum | subcutaneous osmotic pump, dose not given, 5 d | – | drug concentration | 26700 ± 4900 ng/g
CCNCCc1ccc(CN(CC)c2cc(OC)ccc2[C@@H]2CCc3cc(O)ccc3C2)cc1 | – | mouse, non-tumour-bearing, brain | oral, dose not given, 7 days daily, added: fulvestrant s.c. | – | total brain concentration | 243 nmol/L
O=C(O)c1cc(O)c(O)c(O)c1 | – | rat, plasma | oral, 500 mg/kg extract, extract | – | AUC(0-12 h) | 9780 ± 610 ng·h/mL
COc1cc(NC(=O)c2ccc3cc(C(=N)N)ccc3c2)cc(OC(C)C)c1 | – | octanol/buffer | pH 11, urokinase ligand set | – | logP | 3.16
Cl.[2H]C([2H])([2H])CC(=O)c1cnc(NC(=O)C2CC2)cc1Nc1cccc(-c2ncn(C([2H])([2H])[2H])n2)c1OC | geometric mean | human | oral, 10 mg single dose, fasted, liquid | – | AUC(0-24 h) | 675 ng·h/mL
COc1c(OCCCN2CCOCC2)ccc2c1N=C(NC(=O)c1cnc(N)nc1)N1CCN=C21 | – | human | added: itraconazole | – | decrease in clearance | 36.1%
Cc1ccc(Sc2ccccc2N2CCNCC2)c(C)c1 | refers to: Headache | healthy adult women | oral, 10 mg daily, 12 days | – | participants with TEAE | 33.3%
O=C(O)CCC(=O)O.[2H]C([2H])([2H])Oc1cc(C)c2[nH]ccc2c1CN1CC[C@@H](C2CC2)C[C@H]1c1ccc(C(=O)O)cc1 | – | healthy Chinese subjects | dose not given, multiple ascending dose, pooled | baseline: subjects | subjects with TEAEs | 70%
O=C(Nc1nc2cccc(-c3ccc(CN4CCS(=O)(=O)CC4)cc3)n2n1)C1CC1 | – | rheumatoid arthritis patients | oral, 100 mg twice daily, 4 weeks, TEAE regardless of relatedness | – | patients with Diarrhea | 0%
COc1ccc(CNc2nc(-c3ccc(C(=O)O)cc3)nc3c2c2ccccc2n3C)cc1Cl | – | NSG mice | dose not given, day 15 of treatment | – | body weight | 23.8 g and 23.9 g and 22.7 g and 24.4 g
N#C[C@@]1(c2ccc3c(N)ncnn23)O[C@H](CO)[C@@H](O)[C@H]1O | plasma protein binding | mouse plasma | 10 µM, time not given | – | recovery | 101%
Cc1cc(-c2nccc3c2ccn3CC(=O)Nc2ccc(-c3cnccn3)cn2)ccn1 | – | human | 15 mg once daily, multiple ascending dose | – | post-procedural erythema | 0%
NS(=O)(=O)c1cc(C(=O)O)c(NCc2ccco2)cc1Cl | refers to: oral herpes | healthy men | 8 days, treatment-emergent, crossover trial | – | subjects with adverse event | 0%
Oc1ccc(/C=C/c2cc(O)cc(O)c2)cc1 | – | rat, azoxymethane-injected, blood at sacrifice | 100 mg/kg | – | albumin | 4.9 g/dL and 4.6 g/dL and 4.7 g/dL
NC1(C(=O)N[C@@H](CCO)c2ccc(Cl)cc2)CCN(c2nc[nH]c3nccc2-3)CC1 | – | metastatic CRPC patients | 400 mg b.i.d., grade 3 to 4, treatment-related, added: enzalutamide 160 mg daily | – | incidence of Hyper-glycaemia | 28.6%
Cn1cc([C@H]2C[C@H]3CSC(N)=N[C@@]3(c3ccc(F)cc3F)CO2)cn1 | – | male 129/SVE mouse, CSF | subcutaneous, 10 mg/kg, 1 h | – | CSF concentration | 251 nM
Cn1cnc2c1c(=O)[nH]c(=O)n2C | – | human, both sexes, cerebrospinal fluid | dose not given, mean | – | CSF concentration | 348 nM
CC(=O)N(C)C1CCN(c2cc(F)cc(NC(=O)c3cc4c(F)ccc(C)c4[nH]3)c2)C1 (stereo not shown) | – | CD1 mouse | intravenous, 1 mg/kg | – | Vz | 1.5 L/kg

Structure (SMILES) | assay | system | setting | how to read | measurement | value
Cc1cc(NC2CCN(C(=O)OC3CCN(C(=O)/C=C/CN(C)C)C3)CC2)n2ncc(C(C)C)c2n1 (stereo not shown) | Phase I dose escalation CTCAE v4.0, refers to: peripheral oedema | patients with advanced solid tumours | dose not given, QD dosing grade 3 or higher | – | patients with adverse event | 0%
N[C@H]1C(O)O[C@H](CO)[C@@H](O)[C@@H]1O (stereo partly shown) | – | aqueous solution | 50 mM, added: glucose | – | osmolality | 45 mOsmol/kg
COc1ccc(NC(=O)CN2CCOCC2)c([N+](=O)[O-])c1 | – | octanol/buffer | pH 11, known kinase inactives set | – | logP | 2.06
Cc1cc(C)c(CNC(=O)c2cc(Cl)c3c(c2C)O[C@@](C)([C@H]2CC[C@H](N(C)C)CC2)O3)c(=O)[nH]1 | CTCAE v4.0 | human relapsed/refractory NHL | oral, 200 mg once daily, onset after cycle 1 day 1, overall treatment period | – | patients with TEAEs | 100%
Cc1nc2ncnn2c(O)c1NS(=O)(=O)c1ccc(Br)cc1 | – | octanol/buffer | pH 11, known kinase inactives set | – | logP | -1.23
CNC(=O)c1ccc(-c2cnc3ncc(Cc4ccc5ncccc5c4)n3n2)cc1F | refers to: Dizziness, all grades | cancer patients | oral, 600 mg twice daily, expansion cohort, any causality | – | patients with adverse event | 8%
CC[C@H](C)[C@@H]1NC(=O)[C@@](C)(NC(=O)[C@H](CCCNC(=N)N)NC(=O)[C@H](CC(C)C)NC(=O)[C@@H](NC(=O)[C@H](CCC(N)=O)NC(=O)[C@H](CC(C)C)NC(C)=O)[C@@H](C)O)CCCC=CCCC[C@@](C)(C(=O)N[C@@H](CC(C)C)C(=O)N[C@@H](Cc2ccc3ccccc3c2)C(N)=O)NC(=O)[C@H](CCCNC(=N)N)NC(=O)[C@H](CCC(N)=O)NC1=O | – | BALB/c mouse | intravenous, 5 mg/kg | – | Vz | 0.005 L
COc1cc(C=CC(=O)O)ccc1O[C@@H]1O[C@H](C(=O)O)[C@@H](O)[C@H](O)[C@H]1O | – | human, cerebrospinal fluid | concentration not given, mean | – | CSF concentration | 18.1 nM
COC(=O)c1ccccc1-c1c2ccc(=N)cc-2oc2c1ccc1cccc(O)c12.Cl | – | 12.5 mM aqueous NaOH | pH 12.1, 10% DMSO | – | emission maximum | 770 nm
CNCc1ccc(-c2[nH]c3cc(F)cc4c3c2CCNC4=O)cc1 | – | patients | oral, 240 mg twice daily, all grades | – | decreased appetite incidence | 66.7%
O=c1ccc2ccc(O)cc2o1 | – | rat | – | – | scaled intrinsic clearance | 877 mL/min/kg
FC(F)(F)c1ccc(CNc2ccc(Cc3c[nH]c4ncc(Cl)cc34)cn2)cn1 | – | patients with advanced solid tumours | oral, 1000 mg/day, TGCT cohort, grade ≥3 | – | decreased appetite incidence | 0%
CCN1/C(=C/C(C)=O)Sc2ccc(F)cc21 | – | cynomolgus monkey | oral, 10 mg/kg, 6 h post-dose | baseline: pre-dose | heart rate change | 103 ± 26.7%
CC(C)C[C@H](NC(=O)[C@H](CC(C)C)NC(=O)C(C)(C)NC(=O)[C@@H](NC(=O)[C@H](CCC1CCCCC1)NC(=O)[C@@H]1C[C@H](C)CN1C(=O)c1ccc(F)cc1)[C@H](O)C(C)C)C(=O)NC(C)(C)C(=O)NC(C)(C)C(=O)NCCC(=O)N[C@@H](C)CN(C)C | circular dichroism | phosphate buffer | pH 7.4, 20 °C | – | alpha-helix content | 94.2%
CN(CCCN1CCN(C(=O)CN2CCN(CC(=O)[O-])CCN(CC(=O)[O-])CCN(CC(=O)[O-])CC2)CC1)c1ccc2nccc(C(=O)NCC(=O)N3CC(F)(F)C[C@H]3C#N)c2c1.[68Ga+3] | – | mice, HT-1080.hFAP and HT-1080 wild-type xenografts, muscle | iv, 500 pmol, 1 h post injection | – | uptake | 0.5 ± 0.5 %IA/g
CC(C)(C)c1ccc(O)c(CN(Cc2cc(C(C)(C)C)ccc2O)C2CCC(NC(N)=O)CC2)c1 (stereo not shown) | – | mouse plasma | 5 ng/mL, 24 h, 25 °C, short-term storage | – | recovery | 99.6 ± 1.55%
CNc1ccc(-c2nc3ccc(O)cc3s2)cc1 [carbon-11 labelled] | ex vivo biodistribution | B6SJL mouse, normal, hippocampus | intravenous, 30 min | – | SUV | 0.157 ± 0.055
COc1cc2c3cc1Oc1c(OC)c(OC)cc4c1[C@@H](Cc1ccc(O)c(c1)Oc1ccc(cc1)C[C@@H]3N(C)CC2)N(C)CC4 | – | mouse plasma, K3EDTA | 0.5 h, on ice | – | remaining compound | 101%
CC1=C(c2cccc(O)c2)[C@H](c2ccc(OCCN3CC(CF)C3)cc2)Oc2ccc(O)cc21 | – | human, plasma | oral, 1400 mg once daily, steady state geometric mean | – | AUC(0-24 h) | 1890 ng·h/mL
N#Cc1ccc2c(c1)[C@H]1CCCN(C(=O)c3ccc4[nH]cnc4c3)[C@H]1C2 | – | human, male | 360 mg, day 7 | – | androstenedione level | 7.9 nmol/L

Structure (SMILES) | assay | system | setting | how to read | measurement | value
CCO[C@H]1CCN(Cc2c(OC)cc(C)c3[nH]ccc23)[C@H](c2ccc(C(=O)O)cc2)C1 | – | PNH patients, active haemolysis | oral, 100 mg, 8 weeks, treatment | – | incidence of nasopharyngitis | 0%
NC(=O)CC[C@@H]1NC(=O)[C@H](Cc2ccccc2)NC(=O)[C@H](Cc2ccc(O)cc2)NC(=O)CCSSC[C@@H](C(=O)N2CCC[C@H]2C(=O)N[C@H](CCCN=C(N)N)C(=O)NCC(N)=O)NC(=O)[C@H](CC(N)=O)NC1=O | – | human plasma | 1 months, -20 °C | – | long-term stability deviation | ≤ 6.6%
CC(C)(C(=O)N1CCOc2c(C#N)cncc2C1)C(F)F | refers to: Radiculopathy | human | oral, 40 mg, CSF pharmacokinetic cohort | – | subjects with adverse event | 16.7%
CC[C@@H]1CN(C(=O)NCC(F)(F)F)C[C@@H]1c1cnc2cnc3[nH]ccc3n12 | population PK model | human, plasma | oral, outliers excluded | – | Vc/F | 156 L
COC/C=C/c1cc(C2CC2c2ccc3c(c2)C(C(C)C)N(C)CC3)cc2ccc(C(=N)N)cc12 (stereo not shown) | – | octanol/buffer | pH 11, urokinase ligand set | – | logP | > 4.5
Cc1nc2ccc(OCc3ccc(C(F)(F)F)cc3)cc2[nH]1 | – | human liver S9 | 1 µM, pH 7.4 | – | scaled intrinsic clearance | 554 mL/min
CC(C)n1c(Nc2cccnc2)nc2cnc(Nc3ccc(N4CCN(C)CC4)cc3)nc21 | – | human, male, plasma | oral, dose not given, added: gemfibrozil | baseline: without gemfibrozil | increase in AUC | ~26%
CCn1c(=O)c(-c2cc(NC(=O)Nc3ccccc3)c(F)cc2Br)cc2cnc(NC)cc21 | – | human plasma | 150 ng/mL, 1 months, -20 °C, low QC | – | long-term stability accuracy | 8.29%
CN1CCN(C(=O)CN(c2cc(C(F)(F)F)ccc2Cl)S(=O)(=O)c2ccccc2)CC1 | – | octanol/buffer | pH 11, known kinase inactives set | – | logP | 2.97
COc1ccnc(C[S+]([O-])c2nc3ccc(OC(F)F)cc3[nH]2)c1OC (stereo not shown) | – | human, plasma | intravenous, dose not given, median | – | dose-normalised AUC | 9 µg·h/mL per mg/kg
O=C1NCCc2nc(OCc3cccc(F)c3)ccc21 | refers to: loss of Placing | Sprague-Dawley rat male | oral, 100 mg/kg, 30 min | direction not given | Irwin test score | 0
CCc1cc(C(=O)NC)c2nccc(N3CCc4c(cc(Cn5ccnc5)cc4-c4cn(C)nc4C(F)(F)F)C3=O)c2c1 | – | Sprague Dawley rats | oral, 100 mg/kg twice daily, day 4 | baseline: day 1 | body weight change | 6.2%
N#CCC1CCN(c2nc(Nc3ccc(N4CCC(O)CC4)cc3)c3c(=O)[nH]ncc3n2)CC1 | – | human, plasma | oral, 40 mg once daily, day 15 | – | AUC(0-24 h) | 2100 ng·h/mL
CCn1cc(C(=O)N2CCOCC2)c(=O)c2cc(NC3Cc4ccccc4C3)cnc21 | – | human overall, fed, plasma | oral, 900 mg twice daily, day 7, tablet, arithmetic mean | – | half-life | 5.6 h
Cc1ccc([C@@H]2O[C@H](CO)[C@@H](O)[C@H](O)[C@H]2O)cc1Cc1ccc(-c2ccc(F)cc2)s1 | – | Japanese type 2 diabetes patients | 100 mg, day 4, 24 h urine collection | baseline: baseline | urinary sodium excretion change | 61.8 mEq
CC(C)n1ncc2c(C(=O)NCC3(C)CNC3)cc(C3CC3)nc21 | LC-MS/MS | Swiss Webster mouse pups, spinal cord | ip, 50 mg/kg daily, 7 days, 1 h after last dose | – | drug concentration | 595 ng/g and 635 ng/g and 830 ng/g and 540 ng/g and 273 ng/g
CN(C(=O)n1cnc(-c2cccnc2)c1)C1CCCCC1 | – | Wistar rat, midbrain | oral, 10 mg/kg/day of BIA 10-2474, 48 h, repeated 5 days | – | concentration | 8.7 ± 0.2 ng/g
CO[C@H]1/C=C/O[C@@]2(C)Oc3c(C)c(O)c4c(O)c(c(/C=N/N5CCN(C)CC5)c(O)c4c3C2=O)NC(=O)/C(C)=C\C=C\[C@H](C)[C@H](O)[C@@H](C)[C@@H](O)[C@@H](C)[C@H](OC(C)=O)[C@@H]1C | – | healthy humans | oral, dose not given | – | adverse event Chromaturia | 29.2%
